{"data": "Assay results from different studies", "note": "A part holds a random share of what one study measured. Positions count from the first letter of the parent shown."}
{"data": "Study 1", "target": "ABI1, truncated, D143A, DHFR fusion (Arabidopsis thaliana)", "technique": "DHFR PCA, deep sequencing", "sample": "yeast", "notes": "methotrexate growth selection, single substitutions", "together with": "(+)-ABA 0 µM", "reference": "wild-type fitted maximum", "reading": "higher = stronger binding", "starting sequence": "PYL1, truncated, DHFR fusion (Arabidopsis thaliana); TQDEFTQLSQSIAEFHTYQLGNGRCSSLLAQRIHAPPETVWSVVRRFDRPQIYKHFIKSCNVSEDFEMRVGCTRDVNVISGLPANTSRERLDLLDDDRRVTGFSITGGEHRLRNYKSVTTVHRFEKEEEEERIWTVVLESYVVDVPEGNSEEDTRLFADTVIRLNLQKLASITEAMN; partner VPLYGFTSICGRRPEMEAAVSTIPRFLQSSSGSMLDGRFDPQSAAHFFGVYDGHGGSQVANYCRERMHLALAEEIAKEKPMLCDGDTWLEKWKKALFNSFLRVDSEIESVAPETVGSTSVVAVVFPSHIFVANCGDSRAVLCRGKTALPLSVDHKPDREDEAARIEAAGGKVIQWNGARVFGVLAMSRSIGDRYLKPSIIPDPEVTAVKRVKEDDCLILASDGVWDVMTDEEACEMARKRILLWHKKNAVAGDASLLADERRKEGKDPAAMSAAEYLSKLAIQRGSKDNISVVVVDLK"}
{"Substitution": "S59G", "relative binding score [%]": 4.4}
{"Substitution": "G81I", "relative binding score [%]": 14}
{"Substitution": "N165P", "relative binding score [%]": 6.5}
{"Substitution": "G148C", "relative binding score [%]": 5.88}
{"Substitution": "D95M", "relative binding score [%]": -4.79}
{"Substitution": "P83Y", "relative binding score [%]": 6.69}
{"Substitution": "D95V", "relative binding score [%]": -10.1}
{"data": "Study 2", "target": "CCND3, cyclin fold, Cln2 fusion (human)", "technique": "yeast growth competition, sequencing", "sample": "yeast", "notes": "weak parent motif", "reference": "not given", "reading": "higher = stronger binding", "starting sequence": "MASTL docking peptide (human); PMIAKNLMCELDE; partner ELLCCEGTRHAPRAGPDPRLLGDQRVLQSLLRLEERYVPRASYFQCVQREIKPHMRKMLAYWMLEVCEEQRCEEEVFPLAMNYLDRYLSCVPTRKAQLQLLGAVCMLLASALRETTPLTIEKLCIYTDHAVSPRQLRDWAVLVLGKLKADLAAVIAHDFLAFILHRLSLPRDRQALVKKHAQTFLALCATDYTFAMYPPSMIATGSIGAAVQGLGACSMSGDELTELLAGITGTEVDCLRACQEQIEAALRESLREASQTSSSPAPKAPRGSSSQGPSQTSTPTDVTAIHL"}
{"Substitution": "L11F", "normalised enrichment score": -0.356}
{"Substitution": "M8E", "normalised enrichment score": 0.0616}
{"Substitution": "L7W", "normalised enrichment score": 0.0571}
{"Substitution": "A4V", "normalised enrichment score": -0.0517}
{"Substitution": "L11P", "normalised enrichment score": -0.134}
{"Substitution": "D12H", "normalised enrichment score": 0.0502}
{"Substitution": "M8W", "normalised enrichment score": 0.191}
{"Substitution": "M2H", "normalised enrichment score": 0.202}
{"Substitution": "L7C", "normalised enrichment score": -0.12}
{"data": "Study 3", "target": "FOSL1, bZIP domain (human)", "technique": "DHFR protein complementation", "sample": "yeast", "notes": "single substitutions, most at no-binding floor", "reference": "wild-type JUN-FOS pair", "reading": "higher = stronger binding", "starting sequence": "JUN, bZIP domain (human); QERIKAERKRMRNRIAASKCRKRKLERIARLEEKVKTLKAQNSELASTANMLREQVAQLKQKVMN; partner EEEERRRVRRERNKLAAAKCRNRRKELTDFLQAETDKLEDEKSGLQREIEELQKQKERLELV"}
{"Substitution": "R30I", "binding fitness [natural log]": -0.367}
{"Substitution": "L38V", "binding fitness [natural log]": -1.37}
{"Substitution": "S47Y", "binding fitness [natural log]": -0.515}
{"Substitution": "L45K", "binding fitness [natural log]": -1.33}
{"Substitution": "A49K", "binding fitness [natural log]": -0.628}
{"Substitution": "K36E", "binding fitness [natural log]": -0.436}
{"Substitution": "E54L", "binding fitness [natural log]": -0.67}
{"Substitution": "L52A", "binding fitness [natural log]": -1.4}
{"Substitution": "E44N", "binding fitness [natural log]": -0.681}
{"data": "Mixed results"}
{"Substance": "PhoQ, residues 284 288 289 292 302 303 TLASMF", "target": "PhoP, residues 12 14 15 18 19 LHTVM (Escherichia coli, UniProt P23836)", "assay": "Sort-seq, measured: YFP reporter", "test system": "E. coli", "conditions": "PhoQ-PhoP variant library, together with: 10 µM Mg2+", "how to read": "reference: high Mg2+ state, higher = stronger signaling", "endpoint": "fold induction", "result": 1.27}
{"note": "For quick reference, copied from above (study 3):"}
{"Substitution": "S47Y", "binding fitness [natural log]": -0.515}
{"Substitution": "K36E", "binding fitness [natural log]": -0.436}
{"Substitution": "L45K", "binding fitness [natural log]": -1.33}
